Published values collected from several papers.
Numbered parts are unrelated; each lists some results of a single study. Changes are numbered by the printed parent chain.
Sequence of UniProt Q01959 (whole entry, looked up): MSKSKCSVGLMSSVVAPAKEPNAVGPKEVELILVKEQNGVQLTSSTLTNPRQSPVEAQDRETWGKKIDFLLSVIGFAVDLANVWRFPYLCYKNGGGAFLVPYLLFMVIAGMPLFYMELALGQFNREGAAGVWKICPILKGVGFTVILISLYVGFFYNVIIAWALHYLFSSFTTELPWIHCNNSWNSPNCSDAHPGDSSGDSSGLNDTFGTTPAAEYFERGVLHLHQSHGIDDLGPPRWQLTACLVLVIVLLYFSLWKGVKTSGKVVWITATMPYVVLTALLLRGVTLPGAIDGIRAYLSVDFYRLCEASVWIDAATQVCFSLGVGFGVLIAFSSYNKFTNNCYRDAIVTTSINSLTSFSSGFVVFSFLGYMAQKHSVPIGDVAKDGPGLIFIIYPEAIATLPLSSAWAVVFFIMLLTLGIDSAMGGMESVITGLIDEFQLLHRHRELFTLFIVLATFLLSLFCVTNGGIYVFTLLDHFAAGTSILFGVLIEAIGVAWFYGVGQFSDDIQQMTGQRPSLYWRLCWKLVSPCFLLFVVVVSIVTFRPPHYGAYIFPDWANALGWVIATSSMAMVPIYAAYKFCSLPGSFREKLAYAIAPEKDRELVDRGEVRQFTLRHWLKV

Set 1 — technique: Sort-seq; item: YFP reporter; matrix: E. coli; notes: PhoQ-PhoP variant library; with: 10 µM Mg2+; reference: high Mg2+ state; direction: higher = stronger signaling
Molecule: PhoQ, residues 284 288 289 292 302 303 AGGCYF
| target | fold induction |
| --- | --- |
| PhoP, residues 12 14 15 18 19 VGHWL (Escherichia coli, UniProt P23836) | 2.28 |
| PhoP, residues 12 14 15 18 19 TPWTL (Escherichia coli, UniProt P23836) | 1.36 |
| PhoP, residues 12 14 15 18 19 NFFVT (Escherichia coli, UniProt P23836) | 6.58 |
| PhoP, residues 12 14 15 18 19 LHHYF (Escherichia coli, UniProt P23836) | 30.7 |

Set 2 — target: CCNE2, cyclin fold, Cln2 fusion (human); technique: yeast growth competition, sequencing; matrix: yeast; notes: strong parent motif; reference: not given; direction: higher = stronger binding; starting sequence: viral docking peptide; YKVKRRLVFGADD
| Substitution | normalised enrichment score |
| --- | --- |
| YKVPRRLVFGADD [K4P] | 1.2 |
| YKVKRRLMFGADD [V8M] | 5.11 |
| YKPKRRLVFGADD [V3P] | 1.44 |
| YKMKRRLVFGADD [V3M] | 0.682 |
| YKNKRRLVFGADD [V3N] | 0.46 |
| YKVKRRLDFGADD [V8D] | 6.33 |
| YKVKRRLVFEADD [G10E] | 5.63 |
| YKVSRRLVFGADD [K4S] | 3.24 |
| YKVKRRLRFGADD [V8R] | 3.97 |
| YKVKRRLVFNADD [G10N] | 5.62 |
| YKVKRRLVFGAWD [D12W] | 4.5 |
| YKVKDRLVFGADD [R5D] | -0.0793 |
| YKVKRRLVFGAYD [D12Y] | 5.15 |
| YKVKRRLVCGADD [F9C] | 0.57 |
| YKVIRRLVFGADD [K4I] | 1.83 |
| YGVKRRLVFGADD [K2G] | 6.25 |
| YKVKRRLVHGADD [F9H] | 0.683 |
| YKVKRRLVFGAFD [D12F] | 5.2 |
| YKVKRRLVFFADD [G10F] | 3.75 |
| YKVKRRLWFGADD [V8W] | 4.35 |
| YKVDRRLVFGADD [K4D] | 0.247 |
| YKVKPRLVFGADD [R5P] | -0.0371 |
| YKVKRRLVRGADD [F9R] | 0.362 |
| YSVKRRLVFGADD [K2S] | 5.77 |
| YKVRRRLVFGADD [K4R] | 5.8 |

Set 3 — technique: universal PBM; form: double-stranded DNA, one strand shown; matrix: in vitro; tested at: not given; direction: higher = stronger binding
Target: Sal-like protein 4, full length isoform B (SALL4, Homo sapiens, UniProt Q9UJQ4-2, residues 1-616)
Notes: 8-mer, flanks averaged, mean of replicates
Residues (chain): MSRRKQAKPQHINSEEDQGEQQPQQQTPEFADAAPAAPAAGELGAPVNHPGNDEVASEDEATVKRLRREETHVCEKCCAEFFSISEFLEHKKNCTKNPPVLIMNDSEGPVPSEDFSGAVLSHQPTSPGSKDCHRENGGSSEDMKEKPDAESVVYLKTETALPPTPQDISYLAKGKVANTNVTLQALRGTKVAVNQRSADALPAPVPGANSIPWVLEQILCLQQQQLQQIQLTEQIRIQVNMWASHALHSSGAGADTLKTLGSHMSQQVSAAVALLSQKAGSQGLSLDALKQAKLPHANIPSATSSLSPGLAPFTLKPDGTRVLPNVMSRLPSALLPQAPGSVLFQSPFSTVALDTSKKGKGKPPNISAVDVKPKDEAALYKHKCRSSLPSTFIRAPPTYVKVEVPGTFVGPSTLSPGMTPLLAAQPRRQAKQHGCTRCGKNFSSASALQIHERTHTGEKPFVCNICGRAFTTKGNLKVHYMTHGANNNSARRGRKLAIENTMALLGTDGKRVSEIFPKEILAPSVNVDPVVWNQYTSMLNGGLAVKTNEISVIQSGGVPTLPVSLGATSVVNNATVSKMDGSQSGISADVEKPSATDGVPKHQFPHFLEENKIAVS
| Sequence | E-score |
| --- | --- |
| ACGGCTAG | -0.1 |
| GCTTTGGA | 0.0175 |
| ACAAACCT | 0.0876 |
| AGAAGCTC | -0.102 |
| GGGAGGCA | -0.225 |
| GTACGTCA | 0.0364 |
| CTTCGCAA | -0.0601 |
| ATGTCGCC | 0.0438 |

Set 4 — technique: DNA-protein interaction ELISA; form: double-stranded DNA, one strand shown; matrix: in vitro, bacterial lysate; tested at: not given; notes: whole dsDNA probe, crude lysate protein; reference: highest signal in screen; direction: higher = stronger binding
Target: Probable WRKY transcription factor 33, N-terminal DNA-binding domain (WRKY33, Arabidopsis thaliana, UniProt Q8S8P5, residues 169-264)
Sequence of UniProt Q8S8P5 (169-264, looked up): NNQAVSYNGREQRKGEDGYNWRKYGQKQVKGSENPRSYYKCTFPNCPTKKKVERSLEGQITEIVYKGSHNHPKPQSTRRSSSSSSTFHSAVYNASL
| Sequence | relative absorbance |
| --- | --- |
| AAAAAAAACGTCTGGCGGGGTTGAGAAAAA | 20.5 % of maximum |
| AAAAAAGGGTCGCTGTGAGCTCATGAAAAA | 19.9 % of maximum |
| AAAAAACTGGCGACTGCCAGTGGTAGAAAA | 22 % of maximum |
| AAAAAACTGACCGTCAGCGCCCACGCAAAA | 35.1 % of maximum |
| AAAAAAGATCTAGGCCTTGGGACTCAAAAA | 25.8 % of maximum |
| AAAAAATGTCGGCTGTTAGGATATCGAAAA | 27.8 % of maximum |
| AAAAAAGCTTTCAACATCTGCGTCCAAAAA | 32.2 % of maximum |
| AAAAAAGCCTTTACCCTTGTTCCTCTAAAA | 24.5 % of maximum |

Single results of other studies
| Molecule | target or system | assay | test system | setting | endpoint | value |
| --- | --- | --- | --- | --- | --- | --- |
| ISG20L2 (Homo sapiens, UniProt Q9H9L3) | PPAN (Homo sapiens, UniProt Q9NQ55) | cross-linking MS | cell fractions | with: DMTMM | cross-linked residues | K17 to E23 |
| CN([C@@H]1CCc2c(CC(=O)O)c3ccccc3n2C1)S(=O)(=O)c1ccc(F)cc1 | SLC6A3 (Homo sapiens, UniProt Q01959) | ligand displacement |  | 10 µM | inhibition | 77.1% |
| FLNA (Homo sapiens, UniProt P21333) | AFG2A (Homo sapiens, UniProt Q8NB90) | cross-linking MS |  | hits only | interaction screen | cross-linked |
| DLD (Homo sapiens, UniProt P09622) | KGD4 (Homo sapiens, UniProt P82909) | cross-linking MS |  | hits only | interaction screen | cross-linked |
| KAT7 (Homo sapiens, UniProt O95251) | JADE1 (Homo sapiens, UniProt Q6IE81) | cross-linking MS | cell fractions | with: DSSO | cross-linked residues | K376 to K464 |
